# Experimental data of several laboratories.
# Numbered parts are unrelated; each lists some results of a single study. Substitutions count along the parent as printed.

# Study 1
# Target: PABPC1L2, full length, GST fusion (mouse, UniProt A0ABA7IW68)
# Technique: RNAcompete
# Molecule type: RNA
# Sample: in vitro
# Concentration: 20 nM
# Setting: 7-mer, probes averaged, single round
# Reference: mean of 7-mers
# Reading: higher = stronger binding
# Target sequence (chain): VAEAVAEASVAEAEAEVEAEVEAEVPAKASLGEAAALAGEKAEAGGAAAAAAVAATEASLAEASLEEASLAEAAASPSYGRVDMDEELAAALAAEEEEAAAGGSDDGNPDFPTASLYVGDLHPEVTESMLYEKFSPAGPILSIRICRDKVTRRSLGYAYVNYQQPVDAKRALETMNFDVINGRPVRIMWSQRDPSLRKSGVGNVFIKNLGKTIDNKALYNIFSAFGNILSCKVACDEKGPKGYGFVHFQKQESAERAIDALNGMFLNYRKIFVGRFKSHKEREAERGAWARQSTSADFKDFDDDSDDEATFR
Strand,7-mer Z-score
CGCAUGA,-0.0482
GACCGUC,-0.313
GGGUCCC,-0.222
UUCCUCA,-0.452
AAAGCGG,1.59
CCAGCAC,-0.148
ACUGAUC,-0.204
UCGAUCA,-0.00108
CGGAGUC,-0.0373
UGAUCUU,-0.275
GGUCAAC,-0.00652
CGUUGCG,-0.295
AGGUGUG,-0.0428
CUAUCAG,-0.235
ACCGCGA,-0.0772

# Study 2
# Target: Interferon regulatory factor 5, full length, phosphomimetic (IRF5, Homo sapiens, UniProt Q13568-2, residues 1-514, K96S/S451D/S453D/S456D/S462D)
# Technique: protein-binding microarray
# Molecule type: double-stranded DNA, one strand shown
# Sample: in vitro
# Concentration: 250 nM
# Setting: 60-bp whole probe
# Added: salmon DNA 0.4 mg/ml
# Reference: random background probes
# Reading: higher = stronger binding
# Constant ends, left off below: GCCTAGCAC … GTCTTGATTCGCTTGACGCTGCTG
Strand,log fluorescence [z-score]
TTAGGATTCGGTCTCGGTTAGTGCTAG,1.4
TGAGGTATCGACTATCGGTTAGTGCTA,7.72
TTAGATCTCAGTATCGCTTAGTGCTAG,2.28
GACGGTTCGGGTTTCGGGACGTGCTAG,1.73
GACGGACTACTTTTCCTGACGTGCTAG,-0.145
TACAGGTTCTCTTTTATTTTGTGCTAG,0.842
GACGATATCGGGCATCGAGACGTGCTA,0.991
TCACCTTTTGCTTTACTACTGTGCTAG,1.28
GACGGTTCTGGTTTCGGGACGTGCTAG,3.94
CTTACTTTATGTAGGAAGTCGTGCTAG,0.223
CTGGTTTTTACTTTCTGAATGTGCTAG,3.14
TGAAAATTCTAATTAGAATTGTGCTAG,0.977
GACGATATCAGTATCAAGACGTGCTAG,1.78
GACGATTTTAGTTTCGAGACGTGCTAG,7.51

# Study 3
# Target: Fragile X messenger ribonucleoprotein 1, C-terminal low-complexity region (Fmr1, Mus musculus, UniProt P35922)
# Technique: RNA Bind-n-Seq
# Molecule type: RNA
# Sample: in vitro
# Concentration: 200 nM
# Setting: whole 134-nt RNA, ends assumed
# Added: 150 mM LiCl
# Reference: input library
# Reading: higher = stronger binding
# Library: 7-deaza-guanosine replaces G
# Constant ends, left off below: GGGAGUUCUACAGUCCGACGAUC … UGGAAUUCUCGGGUGUCAAGG
Strand,log2 enrichment
CACAGACAACACGCACCCACACAGACACAGAGGGAAGGGAAAGGGAUGGGGACAGGGUGCACAGCAGGGCGGGGUAGGACCCCAGCCCCU,-0.274
UAACUUUAGAGGUGGAUCUGAUGGAUAUGGCAGUGGACGUGGAUUUGGGGAUGGCUAUAAUGGGUAUGGAGGAGGACCUGGAGGUGGCAA,0.463
CUGUGCUACACAUCGUAUGUACCGAAUCGGCCCCCCCGGGCCCCCCCGGGGCCCCCCCGGGGAAAGUAUUAUGUUACGCCGUUCGGAUCU,-0.942
CAAGUCCUGUGCUACACAUCGUAUGUACCGAAUCGGGUGGGAAAGGGAAAAAGGGAAAGUAUUAUGUUACGCCGUUCGGAUCUGCACUUC,-0.303
UUUUCAAAAUAAGGAGCUUCCCAGACCUGUGUUAGAAGGGCAGCAGUCAGAGAGGACCCCAAAUAAUCGCCCUGAUGCCCCUAAGGAGAA,-0.328
GCAGGAAGUAAAAACAAAUGGAAAUGCGUCGGAUAGUGGCAGGGGUGGGGGUUGCUAAGGAAAGGGUGGGAUGGGAGUGGGUAAAGAGUU,1.32
UGGGAGGUGGAUUUUGUUUAUUUUUUUAGCUCAUUUCCAGGGGUGGGAAUUUUUUUUUAAUAUGAGUCAUGAAUAAAGUUGUUUUUGAAA,0.0551

# Study 4
# Target: RNA binding protein fox-1 homolog 2, RRM domain, GST-SBP tag (RBFOX2, Homo sapiens, UniProt O43251-10, residues 100-194)
# Technique: RNA Bind-n-Seq
# Molecule type: RNA
# Sample: in vitro
# Concentration: 365 nM
# Setting: natural RNA segment, single round, ends assumed
# Reference: no-protein control
# Reading: higher = stronger binding
# Constant ends, left off below: GGGAGUUCUACAGUCCGACGAUC … UGGAAUUCUCGGGUGCCAA
Strand,RBNS enrichment (R)
AAGGGAGGCAGGCACCGUGGGAUUUGGGCUUGCUCUGCUUGGUCCCCAUGUGAUGCCCUGUGCUGUAAGAUAUCAGAAAGACCUGGAACAAGGCAAACUUUAUGUCCUCC,0.483
UGGCUGGUGAGUGGCCUGUGUUAGUCUUGUGAGGACCUCGAGGAACCUAAAAGCUCAGAUGCACUUACAGUCUUGUCUGUGGCCUUUGUAUUGUUAUUGGCUGUAAACGU,3.89
CACACAGUAAAUGUUUAUUAAUAGUCAUGGUUCGUAUUUUAGGUGACUGAAAUUGCAUCAGUGAUCAUAAUGAGGUUUGUUAAAACGAUAGCUAUAUUCAAAAUGUCUAU,0.494
UCAUCUGCAGGGUCCUGUGCCUCUGAAGUUCUAGCCAUGAGGUUUCCAGGUAGGACAGCUGCUCCCCAAGCCUCCUGAGGACACAGGAAGAGACGGAAGGAGCACCUUGA,0.438
UCUAGUCUAAAACAUUCUCCUAGGACCAGGGAAGCCUGGCUUACAGUGCCAUUUCUGCUGGGCACCACACCUGCCUGAGGGCCUAGCUCACCACAGCACAUCCUCCAGGA,0.382
UCACAUUCUCUUGUCACCACCAAGAACUCCAAGUUUUUCGUUUUGUUUUGUUUUCAAAGUGCUUACAAUGCAUGUAGACAUUGUUCUUUGUGGUCUGACUCUAUGAUCGA,0.871
AUUCCCUGGCCUCUCUGGCUGCCACUUGGUUAUGUUGUGUGUGUGCGUGAGUGGUGUGCAGGCGCGGUUCCUUACGCCCCAUGUGUGCUGUGUGUGUCCAGGCACGGUUC,1.79
AGAGAAAAAAGAAAGAAGAUAAAUGAGAAUAAUGAUAACCAGAACUUGCUGGAAAUGUGCCUACAAUGGCCUUGUAACAGCCAUUGUUCCCAACAGCAUCACUUAGGGGU,1.28
CUUGAGUGUGUCUGCGUGUUUACACCCAUCCCUCUUUGGGCGGCCCCCUGCUCUGCCCUCCACGGAAUUGGAUUCCAAGGGCUGUUCCAGACAACUGCCAACGUCACUGA,0.397
GACGCUCUCAUUAAAAUCUAUGCAGCCAAGCUCGGCACUUUGUAGCAGCCGGCCUUGCGAAGCCUCCUCAGCUCGGGGGGCCGGGGACCCAGUGAGCCGAGAGGCCCUCU,0.833
AACUUGUCCCUCAGGCUUGUUGCCCUCUGCAGUUGAUCUCCAAAGUUUUAAACCUGUUAAAUUAAUUUUGACAAAUAAGUUACCCUCAACUCAGAUCAAAAAUGGGCAGC,0.479
UUUGAGUGAGUCAGGGGAAACACCCUCUUCCUACUUACACUUGUCUCGCCCACCCCCCAUUCUCUCCUUGGUUUCUUGGCCCUUUACUGUGGCUGUACUUCAGAUCAUCA,0.458

# Study 5
# Target: Sal-like protein 4, full length isoform A (SALL4, Homo sapiens, UniProt Q9UJQ4, residues 1-1053)
# Chain of UniProt Q9UJQ4 (whole entry, looked up): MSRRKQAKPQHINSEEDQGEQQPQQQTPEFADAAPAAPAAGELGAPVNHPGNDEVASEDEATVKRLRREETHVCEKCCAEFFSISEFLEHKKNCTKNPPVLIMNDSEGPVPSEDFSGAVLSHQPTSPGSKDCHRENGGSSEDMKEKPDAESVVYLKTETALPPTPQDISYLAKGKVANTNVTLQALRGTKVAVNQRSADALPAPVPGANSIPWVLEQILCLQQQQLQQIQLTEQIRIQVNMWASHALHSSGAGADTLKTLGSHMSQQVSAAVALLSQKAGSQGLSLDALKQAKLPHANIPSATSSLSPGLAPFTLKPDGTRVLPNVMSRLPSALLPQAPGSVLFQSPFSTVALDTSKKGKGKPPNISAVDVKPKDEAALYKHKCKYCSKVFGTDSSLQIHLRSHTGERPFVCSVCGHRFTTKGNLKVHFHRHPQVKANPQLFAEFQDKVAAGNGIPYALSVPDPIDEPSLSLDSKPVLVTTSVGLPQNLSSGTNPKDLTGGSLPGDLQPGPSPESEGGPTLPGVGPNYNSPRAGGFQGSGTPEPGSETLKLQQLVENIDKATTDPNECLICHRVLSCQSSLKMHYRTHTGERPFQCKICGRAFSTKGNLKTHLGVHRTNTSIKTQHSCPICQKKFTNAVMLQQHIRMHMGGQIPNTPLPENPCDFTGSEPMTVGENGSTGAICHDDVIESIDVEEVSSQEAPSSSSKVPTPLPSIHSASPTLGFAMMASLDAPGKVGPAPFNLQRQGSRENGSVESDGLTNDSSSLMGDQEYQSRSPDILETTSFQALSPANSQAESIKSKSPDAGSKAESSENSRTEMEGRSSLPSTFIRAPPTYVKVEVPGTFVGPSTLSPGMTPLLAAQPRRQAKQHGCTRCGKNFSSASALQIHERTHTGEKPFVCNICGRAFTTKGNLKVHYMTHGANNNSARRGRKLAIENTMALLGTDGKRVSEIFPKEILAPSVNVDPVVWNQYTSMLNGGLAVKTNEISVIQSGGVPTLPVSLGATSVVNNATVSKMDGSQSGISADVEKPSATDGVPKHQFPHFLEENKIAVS
# Technique: universal PBM
# Molecule type: double-stranded DNA, one strand shown
# Sample: in vitro
# Concentration: 600 nM
# Setting: 8-mer, flanks averaged, mean of replicates
# Reading: higher = stronger binding
Strand,E-score
GACTGCCC,-0.252
GTTGTCAA,-0.0276
ACGGGGTG,-0.253
CGCACCAC,-0.121
GGGCTCAA,-0.181
AAATAGAG,0.213
ACGCCCCA,-0.175
CTCCTAGC,-0.175
ACACTCTG,0.0385
ATGACAAT,0.299
AGTGTTGA,0.0972

# Study 6
# Target: TAR DNA-binding protein 43, full length, His tag (TARDBP, Homo sapiens, UniProt Q13148, residues 1-414)
# Technique: RNA Bind-n-Seq
# Molecule type: RNA
# Sample: in vitro
# Concentration: 20 nM
# Setting: 6-mer, flanks averaged, single round
# Added: 150 mM KCl
# Reference: input library
# Reading: higher = stronger binding
Strand,6-mer enrichment (R)
GUAGCU,0.814
CGACCG,0.857
AUCCAU,0.571
UUCGCC,0.59
GGGAGG,10.6
GCCCGA,0.841
UAGUUA,0.616
GGCAUU,0.893

# Study 7
# Target: Hepatocyte nuclear factor 3-alpha (Foxa1, Mus musculus, UniProt P35582, residues 1-468, full length assumed)
# Chain of UniProt P35582 (whole entry, looked up): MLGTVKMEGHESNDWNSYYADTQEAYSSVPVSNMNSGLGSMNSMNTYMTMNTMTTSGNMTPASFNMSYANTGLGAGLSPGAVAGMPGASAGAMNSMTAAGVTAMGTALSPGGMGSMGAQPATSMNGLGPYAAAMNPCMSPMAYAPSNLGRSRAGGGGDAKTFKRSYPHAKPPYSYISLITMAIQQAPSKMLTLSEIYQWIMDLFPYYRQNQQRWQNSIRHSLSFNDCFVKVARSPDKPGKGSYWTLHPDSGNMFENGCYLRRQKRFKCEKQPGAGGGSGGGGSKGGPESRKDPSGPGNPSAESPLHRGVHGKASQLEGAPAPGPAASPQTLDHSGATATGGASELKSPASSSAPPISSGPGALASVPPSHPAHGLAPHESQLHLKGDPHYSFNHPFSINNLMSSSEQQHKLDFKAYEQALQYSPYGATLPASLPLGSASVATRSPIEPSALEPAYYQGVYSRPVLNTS
# Technique: EMSA with sequencing
# Molecule type: double-stranded DNA, one strand shown
# Sample: in vitro
# Concentration: 10 and 20 nM
# Setting: whole designed probe, mean of two concentrations, ends assumed
# Reference: negative control set to 0
# Reading: higher = stronger binding
Strand,normalised bound fraction [ratio]
GTGAGCGGTGCCCATTGATGGGGAACTCTTTCCCCTTCTATGACTTGCAAATTTATATTTCTCTTAACAACCATAAAAACAACTACAGTTGCTGAAGAAATAATGACTCAGAAAGCAAATGTTTACTTTTAAATATGAGCAACTTTACATCTAATGCCAATGCCTGATAAAGAGAAATTTATAGTAAACAAAAAATATGGCCAAAATCACTTATTTAGCTTTCACTGGGATCGTGGGGAC,0.378
GTGAGCGGTGCCCATTGATGGGGAACTTATGAGCCTTCCCATGTTATGGCTACATAGCTGTGATTATGTAATAAGTGGAGTTACGCTCCTGCGCTCCAAACTCGCTGAGTCACACAGGATGTTTACCTTGGCCTATGCCTGCCTGGCTGCAGTGCAGGCATATTCCTTACAAATAAACATTTCCTGAGAAACACCTACATGCTGGGCACTCTATTAGGCTTTCACTGGGATCGTGGGGAC,0.268
GTGAGCGGTGCCCATTGATGGGGAACTAAACATGCTATGAACCAGTGCTAAGTTATACACCAGGCTGGCTTCAAAAATGATTATCAAACTGTGTAGGGATAACTGAAACCAGTAACAGAGTAATCTCTGTGTTAGGATAATAGGGTGCTGACAGGGCGAATGCCTTCCAGCTGAATCATTTTTCCATTCCTGGAATGTTTTGAAATGGAGAATTAAGCATTTCACTGGGATCGTGGGGAC,-0.0332

# Study 8
# Target: CCNB1, cyclin fold, Cln2 fusion (human)
# Technique: yeast growth competition, sequencing
# Sample: yeast
# Setting: weak parent motif
# Reference: not given
# Reading: higher = stronger binding
# Starting sequence: WEE2 docking peptide (human); KELRQKLNFSYCE
Variant,normalised enrichment score
R4A,0.355
K1A,0.142
N8A,0.532
C12A,0.231
L3A,0.228
Y11A,0.208

# Study 9
# Target: Histone acetyltransferase KAT6A, both winged helices, GST fusion (KAT6A, Homo sapiens, UniProt Q92794, residues 1-181)
# Technique: protein binding microarray
# Molecule type: double-stranded DNA, one strand shown
# Sample: in vitro
# Concentration: not given
# Setting: 8-mer, flanks averaged, mean of 2 arrays, mostly near background
# Reference: not given
# Reading: higher = stronger binding
# Target sequence (chain): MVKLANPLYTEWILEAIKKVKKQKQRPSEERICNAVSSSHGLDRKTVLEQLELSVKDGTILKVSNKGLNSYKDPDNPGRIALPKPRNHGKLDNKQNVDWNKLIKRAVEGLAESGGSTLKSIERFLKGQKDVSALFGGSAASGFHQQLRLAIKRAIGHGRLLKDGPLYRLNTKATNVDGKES
Strand,E-score
GAGCTCTA,-0.0279
CCGCAACA,0.18
ATCTCCTA,-0.208
TCGACGAA,0.0477
AATTCCCT,-0.276
TAGACAAA,-0.182
AGCTCGCA,-0.113
TCATAAAA,0.0312
ATAGATGA,-0.088
CGGTAATA,0.149
GCTCGAAC,-0.014
GCGTAACC,0.165
CATGTATC,0.0171
GAGGATAA,-0.218
ATCAACTC,-0.0427
CACAGGTG,-0.0945
CCATAGGA,-0.156

# Repeated from above (study 9):
Strand,E-score
TAGACAAA,-0.182
GAGCTCTA,-0.0279
ATAGATGA,-0.088
ATCAACTC,-0.0427
TCGACGAA,0.0477
CGGTAATA,0.149
TCATAAAA,0.0312
GAGGATAA,-0.218
AGCTCGCA,-0.113
CCGCAACA,0.18
CATGTATC,0.0171
GCGTAACC,0.165
AATTCCCT,-0.276
ATCTCCTA,-0.208
